Assay results from different studies.
Compare with care: the assays were run in different laboratories. ± gives the spread as reported.
Cell line: HL-60

Structure (SMILES) | assay | setting | endpoint | result
CNS(=O)(=O)Nc1nccc(Cc2c(C)c3ccc(Oc4ncccc4F)cc3oc2=O)c1F | cell viability | 7 days | IC50 | 2.22 nM
CC(C)c1ccc(N(C)c2ccc3c(c2)OCC[C@H]3CNc2cnccc2C(=O)O)cc1 | cell growth or viability, ATP luminescence | 7 days | IC50 | 9.32 nM
COc1cc(-c2cn(C)c(=O)c3cnccc23)cc(OC)c1CN(C)C | cell growth or viability | 7 days | EC50 | 2480 nM
CCN(C(=O)c1cc(F)ccc1Oc1nncnc1N1CCC2(C1)CN([C@H](CCCN(C)CCOC)C(C)C)C2)C(C)C | cell growth or viability | 72 h | GI50 | > 10000 nM
Cc1cc(C)nc(SCC(=O)Nc2ncc(Cc3cccc(OCc4cn(Cc5ccc(C#N)cc5)nn4)c3)s2)n1 | cell viability, MTS | 10 µM | inhibition | 4.6 ± 1.4%
COc1ccc(C(O)=CC(=O)c2ccc(C(C)(C)C)cc2)cc1.[Ru+2].c1ccc(-c2ccnc3c2ccc2c(-c4ccccc4)ccnc23)cc1.c1ccc(-c2ccnc3c2ccc2c(-c4ccccc4)ccnc23)cc1 | cytotoxicity | dark | IC50 | 5380 nM
CO[C@@H](C[C@H]1C(C)=CC[C@@H]2[C@]3(C)C[C@H](O[C@@H]4O[C@@H](C)[C@H](OC(=O)c5cccc(O)c5)[C@@H](O[C@@H]5O[C@H](CO)[C@@H](O)[C@H](O)[C@H]5NC(C)=O)[C@H]4O)[C@@H](O)C(C)(C)[C@H]3CC[C@]21C)[C@H](N)C(=O)O | cell growth or viability, CCK-8 | 72 h | IC50 | > 10000 nM
COc1ccc(C(O)=CC(=O)c2ccc(C(C)(C)C)cc2)cc1.[Ru+2].c1ccc(-c2ccccn2)nc1.c1ccc(-c2ccccn2)nc1 | cytotoxicity | dark | IC50 | 300 nM
CCCON(Cc1ccc(C(=O)NO)cc1)C(=O)Nc1cc(C)cc(C)c1 | cell growth or viability, ATP luminescence | 72 h | IC50 | 443 nM
O=C1CCC(N2C(=O)c3ccc(N4CCC(C(=O)N5CCC(CCN6CCC(CNC(=O)c7cccc(-c8noc(C(F)(F)F)n8)c7)(c7nc(-c8ccccc8)cs7)CC6)CC5)CC4)cc3C2=O)C(=O)N1 (stereo not drawn) | cell growth or viability, CCK-8 | 7 days | IC50 | 1510 nM
CCOc1cncc(-c2ccc(NC(=O)C3(c4ccnc(NS(=O)(=O)C5CC5)n4)CCOCC3)nc2)n1 | cell proliferation, CellTiter-Glo | 72 h | IC50 | 118 nM
CO[C@@H](C[C@H]1C(C)=CC[C@@H]2[C@]3(C)C[C@H](O[C@@H]4O[C@@H](C)[C@H](O)[C@@H](O)[C@H]4O)[C@@H](O)C(C)(C)[C@H]3CC[C@]21C)[C@H](N)C(=O)O | cell growth or viability, CCK-8 | 72 h | IC50 | > 10000 nM

Some of these lines once more:
Structure (SMILES) | assay | setting | endpoint | result
CCCON(Cc1ccc(C(=O)NO)cc1)C(=O)Nc1cc(C)cc(C)c1 | cell growth or viability, ATP luminescence | 72 h | IC50 | 443 nM
